Measured values pooled from the literature.
± gives the spread as reported.

By UniProt entry, the sequences of proteins in these tests, tags left out.
UniProt Q9P2P5, whole entry, looked up: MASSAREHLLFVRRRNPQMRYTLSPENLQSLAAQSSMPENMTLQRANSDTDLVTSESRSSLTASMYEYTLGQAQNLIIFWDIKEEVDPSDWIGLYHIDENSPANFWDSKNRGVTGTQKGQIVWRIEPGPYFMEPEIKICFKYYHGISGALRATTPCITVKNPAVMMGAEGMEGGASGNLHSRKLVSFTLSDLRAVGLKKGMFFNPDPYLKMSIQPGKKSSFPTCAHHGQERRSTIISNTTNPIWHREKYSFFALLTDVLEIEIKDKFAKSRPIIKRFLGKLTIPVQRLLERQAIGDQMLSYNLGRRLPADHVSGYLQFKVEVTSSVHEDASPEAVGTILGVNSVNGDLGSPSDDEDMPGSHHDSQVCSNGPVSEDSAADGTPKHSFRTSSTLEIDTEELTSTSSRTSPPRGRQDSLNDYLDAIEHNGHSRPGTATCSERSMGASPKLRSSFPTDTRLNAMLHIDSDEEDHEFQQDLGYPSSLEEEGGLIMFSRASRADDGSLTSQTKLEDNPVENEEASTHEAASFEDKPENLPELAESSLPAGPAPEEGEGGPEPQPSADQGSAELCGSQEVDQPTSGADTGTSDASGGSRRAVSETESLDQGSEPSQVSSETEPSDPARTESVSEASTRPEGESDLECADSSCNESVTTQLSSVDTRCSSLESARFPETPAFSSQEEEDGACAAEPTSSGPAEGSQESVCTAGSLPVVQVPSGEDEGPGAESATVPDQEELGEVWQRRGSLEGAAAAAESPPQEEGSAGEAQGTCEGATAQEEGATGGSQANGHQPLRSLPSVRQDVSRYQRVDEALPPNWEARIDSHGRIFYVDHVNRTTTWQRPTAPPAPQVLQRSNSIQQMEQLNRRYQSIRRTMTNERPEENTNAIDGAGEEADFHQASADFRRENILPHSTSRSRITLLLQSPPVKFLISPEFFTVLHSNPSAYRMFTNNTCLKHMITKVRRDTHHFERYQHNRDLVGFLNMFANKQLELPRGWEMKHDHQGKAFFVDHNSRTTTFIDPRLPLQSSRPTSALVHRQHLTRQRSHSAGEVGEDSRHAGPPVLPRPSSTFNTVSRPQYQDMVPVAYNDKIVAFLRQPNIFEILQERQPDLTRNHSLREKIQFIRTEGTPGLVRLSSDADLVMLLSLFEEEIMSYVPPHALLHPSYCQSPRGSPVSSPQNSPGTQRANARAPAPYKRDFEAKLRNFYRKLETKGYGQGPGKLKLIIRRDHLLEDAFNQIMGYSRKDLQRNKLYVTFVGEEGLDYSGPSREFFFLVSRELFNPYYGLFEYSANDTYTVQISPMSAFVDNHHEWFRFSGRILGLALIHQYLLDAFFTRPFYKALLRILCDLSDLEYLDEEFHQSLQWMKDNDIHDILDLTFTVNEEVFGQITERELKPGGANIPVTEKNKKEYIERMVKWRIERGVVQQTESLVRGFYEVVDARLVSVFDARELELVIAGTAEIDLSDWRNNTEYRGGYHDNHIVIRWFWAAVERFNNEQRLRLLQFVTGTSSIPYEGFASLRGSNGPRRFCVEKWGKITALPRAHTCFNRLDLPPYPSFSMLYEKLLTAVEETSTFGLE

Cc1c(-c2ccccc2)nn2c(=O)cc(-c3cccc(-c4nnn[nH]4)c3)[nH]c12 gave a CLint of 7.06 µL/min/mg (mouse liver microsomes; 1 µM).
NC(=O)c1cn(-c2ccc(F)cc2)c2ccc(NCc3cccnc3)cc2c1=O gave a concentration of 83 nM (rat, plasma; iv, 0.2 mg/kg, 15 min, cassette dosing).
For Cc1cc(SCc2sc(-c3ccc(OC(F)(F)F)cc3)nc2C)ccc1OCC(=O)O, the CC50 was > 50 µM (HEK293T; 18 h).
With Cc1cc(NC(=O)c2cccc(NC(=O)C3=CC(C)(C)CCC3=O)c2)ccc1Nc1nccc(-c2cccnc2)n1 the compound remaining was 103% (rat plasma; 1 µM, 5 min).
The AUC of CCCSc1nc(N[C@@H]2C[C@H]2c2ccc(F)c(F)c2)c2nnn([C@@H]3C[C@H](O)[C@@H](O)[C@H]3O)c2n1 is reported as 77.6 µmol·h/L (rat, male, plasma; oral, 60 mg/kg/day ticagrelor, week 26).
Nc1ncc(-c2ccc3ncnc(N4CCc5cc(F)c(Cl)cc54)c3c2)cn1 has a Cmax of 1490 ng/mL (CD1 mouse, plasma; intravenous, 5 mg/kg).
Cc1ncc(CCc2ccc3c(c2)c(=O)c(C(N)=O)cn3-c2ccc(F)cc2)cn1 gave a fraction unbound of 0.16 (rat, brain homogenate).
Cc1cc(SCc2sc(-c3cc(Cl)ccc3Cl)nc2C)ccc1OCC(=O)O has a CC50 of > 80 µM (HEK293T; 18 h).
Under mRNA level, Cc1ncsc1-c1ccc([C@H](C)NC(=O)[C@@H]2C[C@@H](O)CN2C(=O)[C@@H](NC(=O)CCCCCCC(=O)N2CCN(C[C@]3(C)CCC(c4ccc(Cl)cc4)=C(CN4CCN(c5ccc(C(=O)NS(=O)(=O)c6ccc(N[C@H](CCN7CCOCC7)CSc7ccccc7)c(S(=O)(=O)C(F)(F)F)c6)cc5)CC4)C3)CC2)C(C)(C)C)cc1 is recorded as “decreased” (measured: Cdkn2a and Cdkn1a; STAM mice NASH-HCC model, liver; intraperitoneal, 5 mg/kg twice weekly, from day 45).
Under “ubiquitination TR-FRET signal AUC”, CCOC(=O)/C=C/CNCCCCN1c2ccccc2CCc2ccc(Cl)cc21 is recorded as 421000 a.u. (E3 ubiquitin-protein ligase HECW2 (HECW2, Homo sapiens, UniProt Q9P2P5); inhibitor, Ub-TR-FRET; 33.33 µM, 1 h preincubation, DMSO up to 2%, added: ATP 2 mM; higher = more ubiquitination).
The AUC(0-t) of Cc1n[nH]c(C)c1CCOC(=O)c1cccc2c1oc(=O)n2C is reported as 7610 ng·h/mL (BALB/c mouse, plasma; intravenous, 2 mg/kg).
The brain concentration of O=C(OC(C(F)(F)F)C(F)(F)F)N1Cc2ccc(Br)cc2C1 is reported as 0.192 ± 0.032 µg/g (male CD-1 mouse, brain; intravenous, 2 mg/kg, 15 min, cassette dosing).
With COc1ccc(CC(=O)OCc2ccc(-n3cccn3)cc2)cc1F the AUC(0-t) was 10400 ng·h/mL (BALB/c mouse, plasma; intravenous, 2 mg/kg).
With COc1cc([C@@H]2c3cc4c(cc3C=C(C=O)[C@H]2C(=O)OCc2ccc(CBr)cc2)OCO4)cc(OC)c1OC the selectivity index was 0.4 (Leishmania infantum; Alamar Blue; HepG2; reference: CC50 HepG2 over EC50 amastigotes).
Under “total plasma concentration”, CC(C)n1nnc(-c2cc(O)cc(Nc3ncnn4ccc(CN5CCC(N)CC5)c34)c2)n1 is recorded as 5.4 ± 1.1 µM (mouse, plasma; subcutaneous, 30 mg/kg, 90 min).
COc1ccc(-n2cc(C(N)=O)c(=O)c3cc(CCc4cnc(C)nc4)ccc32)cc1 has an unbound fraction of 0.098 (rat, plasma).

Some of these lines once more:
For Cc1cc(SCc2sc(-c3ccc(OC(F)(F)F)cc3)nc2C)ccc1OCC(=O)O, the CC50 was > 50 µM (HEK293T; 18 h).
The AUC(0-t) of Cc1n[nH]c(C)c1CCOC(=O)c1cccc2c1oc(=O)n2C is reported as 7610 ng·h/mL (BALB/c mouse, plasma; intravenous, 2 mg/kg).
